Results collected from several papers.
Lines come from different studies, so protocols differ. Changes are numbered by the printed parent chain. ± gives the spread as reported.
CASP1/SUMO CARD: CASP1/SUMO CARD, C-terminal TAMRA label
B1: protein (Thermotoga neapolitana, UniProt B9K712); chain MKMLYDLAKKRKTVRRFKKEKPPLEDLIYSLKVANEAPSGMNAQPWRFLIVEDEKLKGQIRRVCERSEKTFYENVRGRLKEWLDEKRFTWRKPFLKEAPYLLLVFSEKSAPYSRESVWLAVGYLLLALEEKGLGSVPYTPPDFREVEKLVNTPSELRLEVILPVGYPDDPKPKYPRNEVIVRYNTF
P1: CASP1 CARD domain (Homo sapiens); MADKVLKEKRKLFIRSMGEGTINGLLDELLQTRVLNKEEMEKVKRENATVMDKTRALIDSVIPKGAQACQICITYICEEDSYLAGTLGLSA
P2: MED17 (Saccharomyces cerevisiae); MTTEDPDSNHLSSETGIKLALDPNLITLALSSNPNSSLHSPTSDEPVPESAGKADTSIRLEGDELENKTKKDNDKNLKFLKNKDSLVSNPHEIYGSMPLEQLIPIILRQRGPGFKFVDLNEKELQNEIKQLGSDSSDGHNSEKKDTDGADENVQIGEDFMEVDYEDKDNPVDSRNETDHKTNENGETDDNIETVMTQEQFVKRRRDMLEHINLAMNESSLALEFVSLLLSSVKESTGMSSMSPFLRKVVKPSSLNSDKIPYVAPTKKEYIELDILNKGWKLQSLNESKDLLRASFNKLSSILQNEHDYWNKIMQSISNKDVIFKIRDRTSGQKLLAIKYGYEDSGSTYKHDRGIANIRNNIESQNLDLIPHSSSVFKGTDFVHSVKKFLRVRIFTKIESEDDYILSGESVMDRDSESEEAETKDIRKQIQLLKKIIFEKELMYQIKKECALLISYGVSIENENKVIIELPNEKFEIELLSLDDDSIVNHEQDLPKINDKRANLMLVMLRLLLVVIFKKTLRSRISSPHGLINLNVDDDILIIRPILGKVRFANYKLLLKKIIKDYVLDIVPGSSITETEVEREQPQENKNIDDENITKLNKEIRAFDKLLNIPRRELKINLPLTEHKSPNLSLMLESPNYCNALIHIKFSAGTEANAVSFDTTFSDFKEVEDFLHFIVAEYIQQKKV; partner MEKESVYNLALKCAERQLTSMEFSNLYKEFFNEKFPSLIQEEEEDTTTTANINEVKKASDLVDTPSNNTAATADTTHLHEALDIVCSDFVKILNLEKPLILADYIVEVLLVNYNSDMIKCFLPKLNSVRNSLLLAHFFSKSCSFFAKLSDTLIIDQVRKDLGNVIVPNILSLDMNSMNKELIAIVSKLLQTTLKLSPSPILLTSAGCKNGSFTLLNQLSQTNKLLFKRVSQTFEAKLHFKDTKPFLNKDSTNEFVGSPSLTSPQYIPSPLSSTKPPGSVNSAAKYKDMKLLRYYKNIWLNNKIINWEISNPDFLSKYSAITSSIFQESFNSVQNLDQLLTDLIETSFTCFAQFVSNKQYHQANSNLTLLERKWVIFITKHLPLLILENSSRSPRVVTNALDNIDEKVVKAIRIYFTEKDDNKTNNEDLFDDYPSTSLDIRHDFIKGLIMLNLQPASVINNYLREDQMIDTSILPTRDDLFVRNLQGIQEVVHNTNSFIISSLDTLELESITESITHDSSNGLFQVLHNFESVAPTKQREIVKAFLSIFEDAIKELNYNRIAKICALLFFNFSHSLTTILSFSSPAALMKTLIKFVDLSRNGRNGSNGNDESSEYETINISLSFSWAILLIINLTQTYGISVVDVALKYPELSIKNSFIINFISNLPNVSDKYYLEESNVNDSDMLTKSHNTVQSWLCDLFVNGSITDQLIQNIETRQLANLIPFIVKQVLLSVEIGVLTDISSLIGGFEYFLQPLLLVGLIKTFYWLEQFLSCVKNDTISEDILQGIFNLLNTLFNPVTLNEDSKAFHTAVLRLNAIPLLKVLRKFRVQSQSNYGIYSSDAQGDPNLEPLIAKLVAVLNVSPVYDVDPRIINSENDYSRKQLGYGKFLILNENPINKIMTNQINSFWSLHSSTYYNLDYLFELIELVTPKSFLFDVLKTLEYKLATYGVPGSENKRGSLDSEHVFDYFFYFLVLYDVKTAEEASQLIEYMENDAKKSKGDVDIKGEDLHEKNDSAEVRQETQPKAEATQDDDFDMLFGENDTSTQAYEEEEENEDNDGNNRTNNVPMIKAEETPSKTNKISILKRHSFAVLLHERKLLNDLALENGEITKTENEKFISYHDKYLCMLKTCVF
P3: IRGM; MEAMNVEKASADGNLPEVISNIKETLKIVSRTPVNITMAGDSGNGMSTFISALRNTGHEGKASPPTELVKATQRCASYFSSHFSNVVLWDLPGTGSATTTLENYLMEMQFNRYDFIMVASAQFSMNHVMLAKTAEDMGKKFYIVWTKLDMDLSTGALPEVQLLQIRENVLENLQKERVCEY; partner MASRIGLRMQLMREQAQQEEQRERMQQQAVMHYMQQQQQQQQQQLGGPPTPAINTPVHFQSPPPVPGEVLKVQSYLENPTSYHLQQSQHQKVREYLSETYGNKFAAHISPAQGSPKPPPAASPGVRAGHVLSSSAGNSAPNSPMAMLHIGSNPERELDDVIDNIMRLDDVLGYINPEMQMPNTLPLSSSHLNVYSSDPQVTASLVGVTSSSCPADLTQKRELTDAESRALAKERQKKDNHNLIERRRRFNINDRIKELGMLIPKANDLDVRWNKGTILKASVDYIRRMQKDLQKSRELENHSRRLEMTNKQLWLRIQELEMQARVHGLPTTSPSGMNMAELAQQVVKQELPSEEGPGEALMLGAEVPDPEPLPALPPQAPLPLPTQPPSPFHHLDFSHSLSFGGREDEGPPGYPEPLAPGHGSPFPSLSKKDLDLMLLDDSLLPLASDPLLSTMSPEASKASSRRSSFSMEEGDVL
Sequence of UniProt P17676 (whole entry, looked up): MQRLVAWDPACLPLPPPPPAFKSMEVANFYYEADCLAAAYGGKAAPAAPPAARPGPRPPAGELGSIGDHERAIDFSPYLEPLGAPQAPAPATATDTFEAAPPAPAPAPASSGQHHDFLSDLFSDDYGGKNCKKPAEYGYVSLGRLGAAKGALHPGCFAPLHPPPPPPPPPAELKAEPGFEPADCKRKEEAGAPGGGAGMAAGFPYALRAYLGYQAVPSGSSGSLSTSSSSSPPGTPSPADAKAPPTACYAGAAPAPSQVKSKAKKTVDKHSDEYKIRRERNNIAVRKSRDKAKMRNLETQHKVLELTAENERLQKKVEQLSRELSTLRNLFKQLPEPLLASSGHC
Sequence of UniProt Q66GI4 (whole entry, unmodified, looked up): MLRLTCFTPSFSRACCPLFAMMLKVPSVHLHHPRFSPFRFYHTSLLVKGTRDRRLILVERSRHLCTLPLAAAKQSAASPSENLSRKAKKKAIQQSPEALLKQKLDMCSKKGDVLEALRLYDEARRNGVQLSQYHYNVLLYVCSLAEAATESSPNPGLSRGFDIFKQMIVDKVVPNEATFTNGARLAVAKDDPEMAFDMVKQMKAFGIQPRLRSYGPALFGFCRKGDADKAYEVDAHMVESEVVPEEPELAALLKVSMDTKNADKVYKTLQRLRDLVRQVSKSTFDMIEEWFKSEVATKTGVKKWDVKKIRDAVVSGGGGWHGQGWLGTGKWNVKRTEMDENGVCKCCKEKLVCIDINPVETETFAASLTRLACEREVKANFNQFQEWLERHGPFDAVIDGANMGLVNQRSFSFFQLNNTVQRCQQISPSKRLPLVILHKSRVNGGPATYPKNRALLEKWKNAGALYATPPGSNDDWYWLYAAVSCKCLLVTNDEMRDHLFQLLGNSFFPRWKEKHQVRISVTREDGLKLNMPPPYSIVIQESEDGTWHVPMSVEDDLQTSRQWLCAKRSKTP

`GACAUGGUCCGGUAGUUCAGUUGGUUAGAAUGCCUGCCUGUCACGCAGGAGGUCGCGGGUUCGAGUCCCGUCCGGACCG (tRNA (Bacillus subtilis); 5'-GMPS, tRNA fold)` — result for “binding free energy loss”: 1.5 kcal/mol (PRORP1 77-572 T180S (Arabidopsis thaliana, UniProt Q66GI4); fluorescence anisotropy; folded RNA; NaCl 1 M; baseline: wild-type target).
For `B1 (protein)`, the kcat/Km was 167000 ± 100000 M⁻¹ s⁻¹ (N[C@@H](Cc1ccc(O)c(I)c1)C(=O)O; steady-state kinetics; pH 7.4, 60 °C).
`GACAUGGUCCGGUAGUUCAGUUGGUAAGAAUGCCUGCCUGUCACGCAGGAGGUCGCGGGUUCGAGUCCCGUCCGGACCG (tRNA (Bacillus subtilis); 5'-GMPS, tRNA fold)` gave a Kd of 300 ± 30 nM (PRORP1 77-572 (Arabidopsis thaliana, UniProt Q66GI4); fluorescence anisotropy; folded RNA; NaCl 330 mM).
For `P1 T49R V50R M51R`, the signal was 300 mP (CASP1/SUMO CARD; fluorescence polarization; 40 min, read off a plot; higher = more binding).
`P2 M504P` gave a peptide counts of 13 (MED5 (Saccharomyces cerevisiae); co-IP mass spectrometry; crude extract; higher = more binding).
For `P1 K64E`, the signal was 310 mP (CASP1/SUMO CARD; fluorescence polarization; 40 min, read off a plot; higher = more binding).
For `P3 S47N`, the relative binding was 0.37 (TFEB; co-IP; read off a plot, with: GTP/GDP; baseline: unchanged protein, higher = more binding).
`AGGATTGCGCAATAT (dsDNA; 5mC at central CpG)` has a relative affinity of under 3 fold (CEBPB 269-344 (Homo sapiens, UniProt P17676); fluorescence polarization; double-stranded DNA, one strand shown; baseline: C:G, higher = stronger binding).

For quick reference, copied from above:
`GACAUGGUCCGGUAGUUCAGUUGGUAAGAAUGCCUGCCUGUCACGCAGGAGGUCGCGGGUUCGAGUCCCGUCCGGACCG (tRNA (Bacillus subtilis); 5'-GMPS, tRNA fold)` gave a Kd of 300 ± 30 nM (PRORP1 77-572 (Arabidopsis thaliana, UniProt Q66GI4); fluorescence anisotropy; folded RNA; NaCl 330 mM).
